{"data": "Measurements of several laboratories", "note": "Numbered parts are unrelated; each lists some results of a single study."}
{"data": "Set 1", "target": "RNA binding protein fox-1 homolog 2, RRM domain, GST-SBP tag (RBFOX2, Homo sapiens, UniProt O43251-10, residues 100-194)", "method": "RNA Bind-n-Seq", "form": "RNA", "matrix": "in vitro", "concentration": "365 nM", "notes": "natural RNA segment, single round, ends assumed", "baseline": "no-protein control", "direction": "higher = stronger binding", "constant ends, left off below": "GGGAGUUCUACAGUCCGACGAUC … UGGAAUUCUCGGGUGCCAA", "Target sequence (chain)": "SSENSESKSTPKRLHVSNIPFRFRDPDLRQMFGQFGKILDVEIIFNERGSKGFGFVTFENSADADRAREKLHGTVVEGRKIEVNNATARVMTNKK"}
{"Strand": "ACUUGGUGCCAAGGCCAAGAGAGAACAGCCCCUGGUCUGCGUCUGUGUCCCCAAGAGAGAGGCUGAAGGACUUUCUCGACAUGGUCCUGGCACUUCCCAGCCUGCUUUUG", "RBNS enrichment (R)": 1.58}
{"Strand": "UCCUGGACAAGUGUGAUCCCCCUAUAAACGGCUCUCAGGAGGUUAGUGAGUAGGAGAUUCUGCCUUGUUCUGAUGAGCCUGUGCAGGGGCUCCAGGGGAGCAUGCUGUCC", "RBNS enrichment (R)": 0.942}
{"Strand": "UAGUGGCAUCAAAUGGCAACAUGGAAUAUUGUCCUCCAUGCCCCUCCAGAAGGACCUAGGAGAGUAGGUGAGCUUUCCAAAGUGAGAGACGAAUCUUUCUUUCUUUUUUU", "RBNS enrichment (R)": 0.362}
{"Strand": "CCACCUCCAGCAUUGCCAGCCUCAUCUGACAGAGAUGGAGCCCUUCUUCCCAUGCCCUGCCUCAGUAUCCCCAGAACUUGUGGCAGACAUUCACAGGUGCACGCAUAUAU", "RBNS enrichment (R)": 1.28}
{"Strand": "UCUUAACUUCCCAAGCUGCAGAAUAGCAACCUUUUAAGCUUUCACACACUUUCCUCUUAAGAUCCGUCAUCUCCAGGACAUAAGUCCCCAGCUCCCAACUGUGGCCAUGG", "RBNS enrichment (R)": 0.678}
{"Strand": "GAAGCCAUACGUGGUUGUCUGCCUUCCUGAGCAAGGCUUCUCAUCCCAUAUUAAAGGAUCAUCAUCAUGGUUCUGCAGACACUCCGUGGCUCUGGGCGGUUCGUGCCCUU", "RBNS enrichment (R)": 0.369}
{"Strand": "ACCUUAAAGUACUGUUCUUUAUUUAAUAAGAUACGCUACUACAUUGCUUUGUUUAUAAAUAGUUUAUGGGAAAUUUGCACUUAGUAUGUUUUGAAUAAUGACCACGCAUG", "RBNS enrichment (R)": 1.46}
{"Strand": "GCCUAGAGCAAGAAACCUGCUCAGUUUUAUAAGCUCCCUUCCCAACCAAAAUGGCUUAUCGUCAUUCAAAAAACCUGUGACAUAGGCAGGCCUUGGAAUUUUGCUCCUUU", "RBNS enrichment (R)": 0.587}
{"Strand": "UAUAUAAUGUUUGUGUCAUGUAUAUGCCUAAAUUUUAAUUAUCUAUAAAUAAAACAUCUGACAUAAAGUGUAGGCUGAGCUUUCUUAACCAGUACAACCAAAAAAUCAAU", "RBNS enrichment (R)": 0.582}
{"Strand": "UCAGUUUAUGUUUUGGUCCACUUUUCCAGUAUUUUAGUGGACCCUGAAAUGUGUGUGAUGUGACAUUUGUCAUUUUCAUUAGCAAAAAAAGUUGUAUGAUCUGUGCCUUU", "RBNS enrichment (R)": 0.279}
{"Strand": "GAAAGGUGACCUCAGAUGCACCUGUUUUCAGCCUGUGCUUUUGUUCUAGUAAAGACAUUUAAACCAAUGGAGUUGCUCCUUUUUGAAGUUAUUGUCACAGAAUCAGGAGU", "RBNS enrichment (R)": 0.381}
{"Strand": "GAUGUAUGUGCGGCCAGUGACUUCCCCAGGAGUGUGGAGGGGGUGGUGAGGAGGAGCACCUGGGCUCUCUACCCCUCUCCUCACAGAAGUACCUGAAACUAGGUCUGGGG", "RBNS enrichment (R)": 0.864}
{"data": "Set 2", "target": "Sal-like protein 4, full length isoform B (SALL4, Homo sapiens, UniProt Q9UJQ4-2, residues 1-616)", "method": "universal PBM", "form": "double-stranded DNA, one strand shown", "matrix": "in vitro", "concentration": "not given", "notes": "8-mer, flanks averaged, mean of replicates", "direction": "higher = stronger binding"}
{"Strand": "CGTGGTTC", "E-score": -0.217}
{"Strand": "AAAGCCCC", "E-score": -0.262}
{"Strand": "CGATCTCA", "E-score": -0.0796}
{"Strand": "GGATCTCA", "E-score": -0.094}
{"Strand": "TAATGCTA", "E-score": 0.277}
{"Strand": "ACCCACAT", "E-score": 0.0802}
{"Strand": "AGCTGGAG", "E-score": -0.144}
{"Strand": "AGTTAAGG", "E-score": 0.0059}
{"Strand": "ACTCACCG", "E-score": -0.172}
{"Strand": "AGCTAGTA", "E-score": 0.0496}
{"Strand": "CGATTAAC", "E-score": 0.013}
{"Strand": "AAGACGGT", "E-score": 0.0212}
{"Strand": "CAGACACG", "E-score": -0.223}
{"Strand": "CTAGCCAA", "E-score": 0.0382}
{"Strand": "CGGAACGC", "E-score": -0.263}
{"Strand": "GAGATTGA", "E-score": 0.0791}
{"Strand": "GCTGCAAC", "E-score": -0.149}
{"Strand": "AATGGCAT", "E-score": 0.128}
{"Strand": "GGCAGCCC", "E-score": -0.408}
{"Strand": "AATGCGGT", "E-score": -0.18}
{"data": "Set 3", "target": "Protein C-ets-1, full length (ETS1, Homo sapiens, UniProt P14921, residues 1-441)", "method": "protein-binding microarray", "form": "hairpin DNA", "matrix": "in vitro", "concentration": "not given", "notes": "whole hairpin DNA, median over replicate spots", "baseline": "not given", "direction": "higher = stronger binding", "Construct (chain)": "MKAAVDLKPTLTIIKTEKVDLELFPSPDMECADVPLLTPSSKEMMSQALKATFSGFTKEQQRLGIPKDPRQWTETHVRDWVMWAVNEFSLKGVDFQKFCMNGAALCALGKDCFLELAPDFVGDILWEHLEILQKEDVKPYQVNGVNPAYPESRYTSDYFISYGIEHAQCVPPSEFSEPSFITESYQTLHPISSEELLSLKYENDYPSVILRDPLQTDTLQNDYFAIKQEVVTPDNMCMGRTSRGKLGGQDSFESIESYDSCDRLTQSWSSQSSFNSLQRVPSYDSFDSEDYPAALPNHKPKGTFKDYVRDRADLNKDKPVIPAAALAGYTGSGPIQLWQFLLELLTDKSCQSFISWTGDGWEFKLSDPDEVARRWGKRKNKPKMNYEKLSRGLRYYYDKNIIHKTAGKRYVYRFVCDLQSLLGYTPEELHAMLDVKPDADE"}
{"Strand": "GAGGCCAGTCGGAAGTTGCCTCCTGGCAACTTCCGACTGGCCTCACACTC (5mC at 37)", "median fluorescence [a.u.]": 3220}
{"Strand": "GAGGCCAGTCGAAAGTTGCCTCCTGGCAACTTTCGACTGGCCTCACACTC", "median fluorescence [a.u.]": 562}
{"Strand": "GAGGCCAGCCGGGAGTTGCCTCCTGGCAACTCCCGGCTGGCCTCACACTC", "median fluorescence [a.u.]": 558}
{"Strand": "GAGGCCAGTTGGAAGTTGCCTCCTGGCAACTTCCAACTGGCCTCACACTC", "median fluorescence [a.u.]": 646}
{"Strand": "GAGGCCAGTCGGCAGTTGCCTCCTGGCAACTGCCGACTGGCCTCACACTC (5mC at 13)", "median fluorescence [a.u.]": 568}
{"Strand": "GAGGCCAGCCGGGAGTTGCCTCCTGGCAACTCCCGGCTGGCCTCACACTC (5mC at 32)", "median fluorescence [a.u.]": 562}
{"Strand": "GAGGCCAGCCGGAATTTGCCTCCTGGCAAATTCCGGCTGGCCTCACACTC", "median fluorescence [a.u.]": 1330}
{"Strand": "GAGGCCAGTCGGAAATTGCCTCCTGGCAATTTCCGACTGGCCTCACACTC", "median fluorescence [a.u.]": 2650}
{"Strand": "GAGGCCAGCCCGAAGTTGCCTCCTGGCAACTTCGGGCTGGCCTCACACTC (5mC at 33)", "median fluorescence [a.u.]": 557}
{"Strand": "GAGGCCCGCCGGAAGTTGCCTCCTGGCAACTTCCGGCGGGCCTCACACTC (5mC at 37)", "median fluorescence [a.u.]": 10400}
{"data": "Set 4", "target": "RING finger protein unkempt homolog, zinc fingers 1-6, GST-SBP tag (UNK, Homo sapiens, UniProt Q9C0B0, residues 30-357)", "method": "RNA Bind-n-Seq", "form": "RNA", "matrix": "in vitro", "concentration": "not given", "notes": "RNA with constant flanks, ends assumed", "baseline": "input RNA pool", "direction": "higher = stronger binding", "constant ends, left off below": "GGGAGUUCUACAGUCCGACGAUC … CAACAGAGGAUUGAGCAUCA", "chain of UniProt Q9C0B0 (30-357, looked up)": "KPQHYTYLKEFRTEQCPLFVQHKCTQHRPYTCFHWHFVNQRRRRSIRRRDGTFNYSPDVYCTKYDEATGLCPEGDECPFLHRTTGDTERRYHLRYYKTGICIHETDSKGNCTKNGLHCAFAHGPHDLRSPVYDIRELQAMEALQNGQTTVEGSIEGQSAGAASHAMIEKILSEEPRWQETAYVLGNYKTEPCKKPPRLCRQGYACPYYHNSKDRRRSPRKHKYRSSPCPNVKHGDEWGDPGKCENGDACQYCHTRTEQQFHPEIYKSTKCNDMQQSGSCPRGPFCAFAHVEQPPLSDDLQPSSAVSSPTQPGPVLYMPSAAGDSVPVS"}
{"Strand": "UACCUUAUAUUACAUCUCAUCUCCACAGUAUAUACAAGAAGAGAUGUCCUUCCACCCGGAAAAUUUACAGUUAACUUGAGUGGUUGCCCACGGAAUAGUACCUUCACAGAACACUUGUAU", "bound/input enrichment": "0.545 ratio"}
{"Strand": "AGGAGGAAAAUCAUCUUAUCAGACGAAGGCAAAAUGUAUGGUAGGAAUGAAUUGACCGCCAGAUACAUCAAACUCAGGACAGGCAAGACGAGGACCAGAAAACAGGUGUCUAGUCACAUU", "bound/input enrichment": "0.149 ratio"}
{"Strand": "ACCCCCUCUAGGAAGUUAUUUUAUGUAGCAUGUUUGCAUAUACGCAUUGUGUGGCAUGUGCACCGAGGCUUGUUUUACACCUAUCUGCUCAUUUUGUUGUGUUAGCUUUUCUGGUUUAUU", "bound/input enrichment": "3.91 ratio"}
{"Strand": "UAUUAACUGGGUGUUCUGACCACGAGGGACUCCUGGCAUCCACGAUUGUUCUGAUUCGCCAACCGCCUUCUCUUGUCUACAGCUGCCAAUGCCAAGAGUCCCUAGCCUGCCUUCCUCACC", "bound/input enrichment": "0.204 ratio"}
{"Strand": "GUUCGAUUACUCUACGCAAAGCGACCAGGAAUUGGACUGUCUCCGUCUCACAGGAGGUACUCCGGCUACAUGUGCGACCUACUUGCAGAUAAGCCCUACCGCCCUCACUUCAAGCCACUC", "bound/input enrichment": "0.0592 ratio"}
{"Strand": "UGUCAACACUGCUUUGAACAGUGCUCUGUGAAGUGUAAGUUCUUUUGUCCCAACAGUUGUACCCGCUGUCAUGUGGUUAUUGUCUGAACAAGUCUUUUGAUUUUGUUUUCCUUAAAAAGU", "bound/input enrichment": "0.142 ratio"}
{"Strand": "GCCCAGGGUCGCCAUGUGGAAAUAUUUGAGCUCCUUAAACCUCCGUGUGGAGGCCUCGGCUUCCGUGUUGUUGGGCUCAGAAGUGAAAACAGGGGCGAGCUGGGGAUAUUUGUCCAGGAG", "bound/input enrichment": "0.201 ratio"}
{"Strand": "ACCAUCUAUUCUGCAACCAAGACUUUUGUAGAUUUCUUCUCUCAGUGCCUCCAUGAGGAGUACCGGAGCAAGGGCGUCUUUGUGCAGAGUGUCCUGCCAUACUUCGUAGCUACAAAACUG", "bound/input enrichment": "0.153 ratio"}
{"Strand": "GAGGAGAGUCUCACUGUAGAAAGUACUGACUUGAACGAUGAAAGAACAGGGGAGAGUCUCACUGCCGAAAGUACUGACUUGAACGAUUCUGCAGUAAACAUAGAAGCAUUUGUAGAGAGC", "bound/input enrichment": "3.82 ratio"}
{"Strand": "UACUUGGCAUAUCGAAAUUUUAUGAUUGACACGUAUCGUCUAAACCCCCAAGAGUAUUUAACCCGCACUGCUUGUCGGAGGAACUUGACUGGAGAUGUGUGUGCUGUGAUGAGGGUCCAU", "bound/input enrichment": "0.34 ratio"}
{"Strand": "UUGGCAAAGCAUCCAGAGAAGCUGGCUACUGUCCUUUCUGGGGCGUGUGAUGGAGAGGUCCGAAUUUGGAAUCUAACUCAGCGGAAUUGUAUCCGUACAAUACAAGCACAUGAAGGCUUU", "bound/input enrichment": "0.193 ratio"}
